Published values gathered from unrelated publications.
Each numbered part is a random draw from the data of one study; scales do not carry over between parts. Positions count from the first letter of the parent shown.

Block 1 — technique: protein-binding microarray; form: double-stranded DNA, one strand shown; matrix: in vitro; concentration: 2540 nM top; setting: 60-bp whole probe; together with: salmon DNA 0.4 mg/ml; relative to: random background probes; reading: higher = stronger binding; quantity: fitted relative affinity; all sequences stand within: GCCTAGCAC … GTCTTGATTCGCTTGACGCTGCTG
Target: Interferon regulatory factor 3, full length, phosphomimetic (IRF3, Homo sapiens, UniProt Q14653, residues 1-427, S386D/S396D/S398D/S402D/T404D/S405D)
Residues (chain): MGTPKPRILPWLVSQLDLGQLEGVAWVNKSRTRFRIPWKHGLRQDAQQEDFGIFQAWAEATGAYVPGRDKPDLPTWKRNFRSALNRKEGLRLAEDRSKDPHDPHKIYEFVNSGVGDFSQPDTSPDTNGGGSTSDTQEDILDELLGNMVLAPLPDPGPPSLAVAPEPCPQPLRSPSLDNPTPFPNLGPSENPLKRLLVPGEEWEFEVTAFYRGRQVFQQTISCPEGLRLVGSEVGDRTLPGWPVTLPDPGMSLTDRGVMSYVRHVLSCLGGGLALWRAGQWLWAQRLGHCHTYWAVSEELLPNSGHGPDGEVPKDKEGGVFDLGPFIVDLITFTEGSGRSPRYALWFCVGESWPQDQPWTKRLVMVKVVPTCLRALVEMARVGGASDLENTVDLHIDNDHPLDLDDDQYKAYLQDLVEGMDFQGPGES
Oligonucleotide = GACTAACTGAGACTGGAGACGTGCTAG; result = -0.129 z-score
Oligonucleotide = TTTGATATCAGTTTCGATTAGTGCTAG; result = 5.11 z-score
Oligonucleotide = TCATTTCTCATTCGTCATACTGTGCTA; result = 2.77 z-score
Oligonucleotide = GACGATTTCAGTAGCGAGACGTGCTAG; result = 0.976 z-score
Oligonucleotide = TCAGCTTTCTCTTTCATACTGTGCTAG; result = 3.35 z-score
Oligonucleotide = GACGAACTCGGGTATCGAGACGTGCTA; result = -0.128 z-score
Oligonucleotide = GACGGTACCGGTTTCGGGACGTGCTAG; result = 4.08 z-score
Oligonucleotide = GACGATCTCTGTATCGAGACGTGCTAG; result = 0.78 z-score
Oligonucleotide = TTAGATATCGAGACTGGATTAGTGCTA; result = -0.219 z-score
Oligonucleotide = TGAGATATCGGGTTTCGATTAGTGCTA; result = 1.88 z-score
Oligonucleotide = TAGTCTCTTCTGCAGCCTTTGTGCTAG; result = 0.368 z-score

Block 2 — Variant: D75R; technique: DHFR PCA, deep sequencing; matrix: yeast; relative to: wild-type fitted maximum; reading: higher = stronger binding; quantity: relative binding score
Target: ABI1, truncated, D143A, DHFR fusion (Arabidopsis thaliana)
Setting: methotrexate growth selection, single substitutions
Starting sequence: PYL1, truncated, DHFR fusion (Arabidopsis thaliana); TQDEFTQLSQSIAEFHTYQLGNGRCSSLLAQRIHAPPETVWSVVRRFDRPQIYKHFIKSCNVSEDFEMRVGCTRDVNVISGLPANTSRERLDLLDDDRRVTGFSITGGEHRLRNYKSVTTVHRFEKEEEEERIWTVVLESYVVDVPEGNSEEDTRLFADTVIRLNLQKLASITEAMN
conditions = together with: (+)-ABA 710 µM; result = 98.5%
conditions = together with: (+)-ABA 58 µM; result = 82.1%
conditions = together with: (+)-ABA 0.39 µM; result = 27.1%
conditions = together with: (+)-ABA 0.11 µM; result = 14.8%
conditions = together with: (+)-ABA 2500 µM; result = 95.8%

Block 3 — target: CCNE1, cyclin fold, Cln2 fusion (human); technique: yeast growth competition, sequencing; matrix: yeast; setting: weak parent motif; relative to: not given; reading: higher = stronger binding; quantity: normalised enrichment score
Starting sequence: SLBP docking peptide (human); ARYKRKLLINDFG
Variant = ARYKRKLLINDIG [F12I]; result = 0.295
Variant = ARYKRILLINDFG [K6I]; result = 0.66
Variant = ARYKRKLRINDFG [L8R]; result = 0.106
Variant = ARYKRRLLINDFG [K6R]; result = 0.244
Variant = ARYKRKLCINDFG [L8C]; result = 0.345
Variant = ARYKAKLLINDFG [R5A]; result = 0.653
Variant = ARYKRKLLINDFW [G13W]; result = 0.414

Single results of other studies
Substance = PhoQ, residues 284 288 289 292 302 303 SMMNNA; target = PhoP, residues 12 14 15 18 19 LHSVW (Escherichia coli, UniProt P23836); test = Sort-seq, refers to: YFP reporter; test system = E. coli; conditions = PhoQ-PhoP variant library, together with: 10 µM Mg2+; scale = relative to: high Mg2+ state, higher = stronger signaling; quantity = fold induction; result = 3.95

A few entries again (block 1):
Oligonucleotide = TCATTTCTCATTCGTCATACTGTGCTA; result = 2.77 z-score
Oligonucleotide = GACGATTTCAGTAGCGAGACGTGCTAG; result = 0.976 z-score
